Results collected from several papers.
Parts stem from different laboratories: compare values within a part only. Positions count from the first letter of the parent shown.

Series 1
Target: PABPC1L2, full length, GST fusion (mouse, UniProt A0ABA7IW68)
Technique: RNAcompete
Molecule type: RNA
Medium: in vitro
Tested at: 20 nM
Setting: 7-mer, probes averaged, single round
Relative to: mean of 7-mers
Direction: higher = stronger binding
Endpoint: 7-mer Z-score
Residues (chain): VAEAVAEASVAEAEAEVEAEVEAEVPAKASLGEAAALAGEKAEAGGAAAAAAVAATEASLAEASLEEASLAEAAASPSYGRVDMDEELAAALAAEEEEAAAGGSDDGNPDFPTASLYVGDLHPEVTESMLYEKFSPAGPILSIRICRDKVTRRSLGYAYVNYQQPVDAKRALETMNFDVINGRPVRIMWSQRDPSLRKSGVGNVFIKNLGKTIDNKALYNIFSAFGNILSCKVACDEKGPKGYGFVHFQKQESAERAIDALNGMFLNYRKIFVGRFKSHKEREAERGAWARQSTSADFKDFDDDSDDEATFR
Strand = AAGAAAC; value = 1.19
Strand = UUGGCUC; value = -0.19
Strand = AUGAUUC; value = -0.0627
Strand = CCCAAGC; value = -0.22
Strand = UUCGCGU; value = -0.327
Strand = CUUUGCG; value = -0.411
Strand = GGCAGGG; value = 0.184
Strand = CCCUUCC; value = -0.414
Strand = ACCUUCC; value = -0.394
Strand = AGUAGAU; value = 0.0243
Strand = UCACCGU; value = -0.322
Strand = UCCGUAA; value = -0.0246
Strand = GAGCAAA; value = 0.831
Strand = GUCCGUU; value = -0.324
Strand = AAGGAAC; value = 0.341
Strand = CCUAUAG; value = -0.195
Strand = GGGGGAA; value = 0.347
Strand = CAAGACA; value = 0.129

Series 2
Target: Sal-like protein 4, full length isoform B (SALL4, Homo sapiens, UniProt Q9UJQ4-2, residues 1-616)
Technique: universal PBM
Molecule type: double-stranded DNA, one strand shown
Medium: in vitro
Tested at: not given
Setting: 8-mer, flanks averaged, mean of replicates
Direction: higher = stronger binding
Endpoint: E-score
Target sequence (chain): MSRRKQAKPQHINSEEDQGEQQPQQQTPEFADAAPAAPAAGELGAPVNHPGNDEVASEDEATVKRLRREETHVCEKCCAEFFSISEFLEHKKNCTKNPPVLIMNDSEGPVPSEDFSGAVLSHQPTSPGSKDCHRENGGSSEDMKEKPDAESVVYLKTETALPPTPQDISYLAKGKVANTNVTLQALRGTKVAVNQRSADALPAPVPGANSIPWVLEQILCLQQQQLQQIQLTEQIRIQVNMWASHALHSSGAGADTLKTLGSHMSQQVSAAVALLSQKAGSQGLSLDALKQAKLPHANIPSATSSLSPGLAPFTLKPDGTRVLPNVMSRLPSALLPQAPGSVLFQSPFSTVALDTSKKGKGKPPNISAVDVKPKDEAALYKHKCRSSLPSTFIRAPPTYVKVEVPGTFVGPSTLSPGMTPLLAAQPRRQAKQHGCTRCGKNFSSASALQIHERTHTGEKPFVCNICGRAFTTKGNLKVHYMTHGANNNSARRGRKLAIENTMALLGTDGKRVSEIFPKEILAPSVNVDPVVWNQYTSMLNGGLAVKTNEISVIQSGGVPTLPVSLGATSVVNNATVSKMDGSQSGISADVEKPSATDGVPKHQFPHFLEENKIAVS
Strand = CTTCTAAC; value = 0.00565
Strand = GCTGCGAA; value = -0.00849
Strand = CTCAACAA; value = 0.0801
Strand = CTTCGTAA; value = 0.118
Strand = AATTAGCT; value = 0.144
Strand = ACACGGAG; value = -0.043
Strand = AACTACGC; value = 0.00032
Strand = TCCTGAAA; value = 0.0739
Strand = AGGAGTTA; value = 0.15
Strand = ACACTAGA; value = 0.139
Strand = ATTTGGAG; value = -0.0172
Strand = GAATCCAA; value = 0.0232
Strand = CCACCCAG; value = -0.284
Strand = CACTGCCG; value = -0.308

Series 3
Target: ABI1, truncated, D143A, DHFR fusion (Arabidopsis thaliana)
Technique: DHFR PCA, deep sequencing
Medium: yeast
Setting: methotrexate growth selection, single substitutions
With: (+)-ABA 0.39 µM
Relative to: wild-type fitted maximum
Direction: higher = stronger binding
Endpoint: relative binding score
Starting sequence: PYL1, truncated, DHFR fusion (Arabidopsis thaliana); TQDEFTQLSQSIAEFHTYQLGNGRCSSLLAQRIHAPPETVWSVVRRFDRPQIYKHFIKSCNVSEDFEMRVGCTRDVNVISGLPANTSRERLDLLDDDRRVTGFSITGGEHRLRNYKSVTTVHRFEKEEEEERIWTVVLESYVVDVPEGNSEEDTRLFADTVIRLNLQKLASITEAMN; partner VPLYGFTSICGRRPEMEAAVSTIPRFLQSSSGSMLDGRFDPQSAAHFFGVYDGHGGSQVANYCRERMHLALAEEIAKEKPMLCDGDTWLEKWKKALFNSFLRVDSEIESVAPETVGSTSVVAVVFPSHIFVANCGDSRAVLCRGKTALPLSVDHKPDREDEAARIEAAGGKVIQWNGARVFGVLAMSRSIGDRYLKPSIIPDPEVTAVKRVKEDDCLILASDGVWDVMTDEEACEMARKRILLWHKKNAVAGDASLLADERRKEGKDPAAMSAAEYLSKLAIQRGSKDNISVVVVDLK
Change = V76P; value = -11%
Change = V137C; value = 18.7%
Change = P36T; value = 31%
Change = R49I; value = 3.88%
Change = V142G; value = -5.75%
Change = D96W; value = -9.93%
Change = H122P; value = -7.44%
Change = V44L; value = 22.6%

Series 4
Target: CCNA1, cyclin fold, Cln2 fusion (human)
Technique: yeast growth competition, sequencing
Medium: yeast
Setting: weak parent motif
Relative to: not given
Direction: higher = stronger binding
Endpoint: normalised enrichment score
Starting sequence: SGO1 docking peptide (human); PLAKRALKYTDEK; partner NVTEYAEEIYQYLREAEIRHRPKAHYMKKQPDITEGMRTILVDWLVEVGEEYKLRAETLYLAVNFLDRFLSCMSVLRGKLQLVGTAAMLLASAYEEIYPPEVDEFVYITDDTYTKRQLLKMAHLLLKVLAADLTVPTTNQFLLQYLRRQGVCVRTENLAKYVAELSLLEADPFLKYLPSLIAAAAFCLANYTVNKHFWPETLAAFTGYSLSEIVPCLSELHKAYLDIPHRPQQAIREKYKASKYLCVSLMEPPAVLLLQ
Change = PLAKRALKYTDAK [E12A]; value = 0.359
Change = PLAKRALKYADEK [T10A]; value = 0.493
Change = ALAKRALKYTDEK [P1A]; value = 0.382
Change = PLAKRALKYTAEK [D11A]; value = 0.151
Change = PLAKRALAYTDEK [K8A]; value = 0.355

Other studies, line by line
Substance = PhoQ, residues 284 288 289 292 302 303 TYGVAM; target = PhoP, residues 12 14 15 18 19 VQGLL (Escherichia coli, UniProt P23836); assay = Sort-seq, measured: YFP reporter; test system = E. coli; conditions = PhoQ-PhoP variant library, with: 10 µM Mg2+; scale = relative to: high Mg2+ state, higher = stronger signaling; endpoint = fold induction; value = 18.9
